Measured values of several laboratories.
Each line is one published result; not all experiments were run side by side. Several values in a cell are separate wells, animals, samples, runs or records. ± marks the error that the study gave.
HDAC9: Histone deacetylase 9 (HDAC9, Homo sapiens, UniProt Q9UKV0)
UniProt Q9UKV0, sequence (whole entry, looked up): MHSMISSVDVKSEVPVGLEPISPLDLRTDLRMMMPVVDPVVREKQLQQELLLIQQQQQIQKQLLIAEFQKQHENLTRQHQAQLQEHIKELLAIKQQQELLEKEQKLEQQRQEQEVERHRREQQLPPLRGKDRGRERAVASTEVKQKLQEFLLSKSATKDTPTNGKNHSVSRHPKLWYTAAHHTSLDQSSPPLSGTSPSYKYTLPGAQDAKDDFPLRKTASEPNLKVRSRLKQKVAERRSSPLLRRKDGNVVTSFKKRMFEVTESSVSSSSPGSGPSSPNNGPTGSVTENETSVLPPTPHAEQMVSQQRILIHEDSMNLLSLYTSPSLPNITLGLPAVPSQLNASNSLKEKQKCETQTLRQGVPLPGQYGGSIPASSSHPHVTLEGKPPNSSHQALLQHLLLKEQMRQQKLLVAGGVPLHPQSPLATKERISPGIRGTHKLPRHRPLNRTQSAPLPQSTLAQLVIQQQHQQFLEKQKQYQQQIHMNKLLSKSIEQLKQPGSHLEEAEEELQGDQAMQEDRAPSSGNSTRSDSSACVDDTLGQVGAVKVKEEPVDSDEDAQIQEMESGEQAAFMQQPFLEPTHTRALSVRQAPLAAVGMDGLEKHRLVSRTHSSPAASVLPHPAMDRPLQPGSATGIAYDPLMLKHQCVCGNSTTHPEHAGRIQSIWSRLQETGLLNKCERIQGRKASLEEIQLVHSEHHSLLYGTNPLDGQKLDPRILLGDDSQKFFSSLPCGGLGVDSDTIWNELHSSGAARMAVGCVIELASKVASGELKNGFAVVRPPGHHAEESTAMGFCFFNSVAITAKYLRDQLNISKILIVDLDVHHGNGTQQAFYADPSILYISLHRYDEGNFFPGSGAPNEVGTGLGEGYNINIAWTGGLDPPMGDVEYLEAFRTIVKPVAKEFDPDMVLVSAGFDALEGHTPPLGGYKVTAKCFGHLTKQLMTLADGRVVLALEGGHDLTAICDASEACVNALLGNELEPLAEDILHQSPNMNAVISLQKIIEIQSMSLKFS
GBA1 R534H: Lysosomal acid glucosylceramidase (GBA1, Homo sapiens, UniProt P04062, R534H)
UniProt P04062, sequence (whole entry, unmodified, looked up): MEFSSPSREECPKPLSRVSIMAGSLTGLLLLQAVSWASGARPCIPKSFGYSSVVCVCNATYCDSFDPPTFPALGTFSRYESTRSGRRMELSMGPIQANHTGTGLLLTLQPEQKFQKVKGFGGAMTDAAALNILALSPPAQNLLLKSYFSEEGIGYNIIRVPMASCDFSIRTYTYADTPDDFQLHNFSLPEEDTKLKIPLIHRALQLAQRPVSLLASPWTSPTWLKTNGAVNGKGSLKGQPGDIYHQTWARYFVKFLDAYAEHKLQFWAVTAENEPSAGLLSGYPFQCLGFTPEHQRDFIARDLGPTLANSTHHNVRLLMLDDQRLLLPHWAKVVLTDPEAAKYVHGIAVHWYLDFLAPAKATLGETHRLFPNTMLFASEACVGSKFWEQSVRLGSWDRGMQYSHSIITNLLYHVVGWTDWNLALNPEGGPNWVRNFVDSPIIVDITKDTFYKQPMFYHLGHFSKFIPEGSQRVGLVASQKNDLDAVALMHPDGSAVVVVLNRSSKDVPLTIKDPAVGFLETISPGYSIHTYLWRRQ
P4HB: Protein disulfide-isomerase (P4HB, Homo sapiens, UniProt P07237)
UniProt P07237, sequence (whole entry, looked up): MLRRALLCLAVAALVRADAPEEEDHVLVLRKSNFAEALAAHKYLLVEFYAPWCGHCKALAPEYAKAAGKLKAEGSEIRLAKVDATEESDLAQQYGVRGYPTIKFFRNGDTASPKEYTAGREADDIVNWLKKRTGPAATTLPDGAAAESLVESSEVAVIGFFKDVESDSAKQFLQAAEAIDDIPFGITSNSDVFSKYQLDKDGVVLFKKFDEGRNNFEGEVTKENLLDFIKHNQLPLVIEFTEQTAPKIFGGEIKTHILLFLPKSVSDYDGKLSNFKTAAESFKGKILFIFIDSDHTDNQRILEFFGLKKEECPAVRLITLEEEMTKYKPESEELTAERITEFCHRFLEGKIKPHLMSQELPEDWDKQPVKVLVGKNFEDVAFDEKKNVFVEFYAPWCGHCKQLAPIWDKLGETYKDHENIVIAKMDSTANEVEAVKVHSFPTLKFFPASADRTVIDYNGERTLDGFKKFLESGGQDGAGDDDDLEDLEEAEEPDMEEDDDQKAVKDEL
HDAC6: Protein deacetylase HDAC6 (HDAC6, Homo sapiens, UniProt Q9UBN7)
PSMB8: Proteasome subunit beta type-8 (PSMB8, Homo sapiens, UniProt P28062)
UniProt P28062, sequence (whole entry, looked up): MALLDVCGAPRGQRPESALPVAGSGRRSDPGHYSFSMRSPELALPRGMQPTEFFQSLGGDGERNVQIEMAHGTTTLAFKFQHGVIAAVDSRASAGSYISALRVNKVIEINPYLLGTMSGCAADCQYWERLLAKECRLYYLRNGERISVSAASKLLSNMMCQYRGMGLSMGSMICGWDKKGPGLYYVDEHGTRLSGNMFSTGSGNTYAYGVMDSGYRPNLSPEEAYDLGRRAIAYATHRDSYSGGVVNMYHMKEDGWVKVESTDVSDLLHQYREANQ
Gria1/Gria2: Glutamate receptor AMPA 1/2 (Gria1/Gria2, Rattus norvegicus, UniProt P19490+P19491)
UniProt P19490, sequence (whole entry, looked up): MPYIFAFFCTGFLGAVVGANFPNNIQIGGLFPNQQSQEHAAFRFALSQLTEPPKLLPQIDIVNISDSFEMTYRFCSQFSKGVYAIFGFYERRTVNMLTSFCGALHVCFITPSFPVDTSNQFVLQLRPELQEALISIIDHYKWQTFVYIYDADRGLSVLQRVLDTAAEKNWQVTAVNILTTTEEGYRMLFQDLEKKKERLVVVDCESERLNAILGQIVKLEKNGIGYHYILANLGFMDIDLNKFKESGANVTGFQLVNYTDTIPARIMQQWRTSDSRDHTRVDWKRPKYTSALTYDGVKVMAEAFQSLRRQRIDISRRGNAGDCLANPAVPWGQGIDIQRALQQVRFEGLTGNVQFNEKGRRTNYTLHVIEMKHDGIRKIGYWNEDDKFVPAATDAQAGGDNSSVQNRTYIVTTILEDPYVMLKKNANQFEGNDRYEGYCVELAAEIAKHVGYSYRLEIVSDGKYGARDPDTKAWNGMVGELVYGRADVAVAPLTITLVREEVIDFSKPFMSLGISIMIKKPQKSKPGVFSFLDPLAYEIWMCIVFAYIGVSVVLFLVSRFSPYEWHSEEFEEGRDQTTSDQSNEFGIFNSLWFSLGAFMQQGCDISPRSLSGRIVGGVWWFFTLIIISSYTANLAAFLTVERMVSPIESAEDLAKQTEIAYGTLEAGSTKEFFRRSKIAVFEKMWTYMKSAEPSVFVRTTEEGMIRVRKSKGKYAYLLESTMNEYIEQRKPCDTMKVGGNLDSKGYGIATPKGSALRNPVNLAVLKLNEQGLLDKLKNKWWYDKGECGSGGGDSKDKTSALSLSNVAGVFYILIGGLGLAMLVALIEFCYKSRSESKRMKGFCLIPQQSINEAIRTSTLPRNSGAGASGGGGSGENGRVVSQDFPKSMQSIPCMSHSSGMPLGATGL
UniProt P19491, sequence (whole entry, looked up): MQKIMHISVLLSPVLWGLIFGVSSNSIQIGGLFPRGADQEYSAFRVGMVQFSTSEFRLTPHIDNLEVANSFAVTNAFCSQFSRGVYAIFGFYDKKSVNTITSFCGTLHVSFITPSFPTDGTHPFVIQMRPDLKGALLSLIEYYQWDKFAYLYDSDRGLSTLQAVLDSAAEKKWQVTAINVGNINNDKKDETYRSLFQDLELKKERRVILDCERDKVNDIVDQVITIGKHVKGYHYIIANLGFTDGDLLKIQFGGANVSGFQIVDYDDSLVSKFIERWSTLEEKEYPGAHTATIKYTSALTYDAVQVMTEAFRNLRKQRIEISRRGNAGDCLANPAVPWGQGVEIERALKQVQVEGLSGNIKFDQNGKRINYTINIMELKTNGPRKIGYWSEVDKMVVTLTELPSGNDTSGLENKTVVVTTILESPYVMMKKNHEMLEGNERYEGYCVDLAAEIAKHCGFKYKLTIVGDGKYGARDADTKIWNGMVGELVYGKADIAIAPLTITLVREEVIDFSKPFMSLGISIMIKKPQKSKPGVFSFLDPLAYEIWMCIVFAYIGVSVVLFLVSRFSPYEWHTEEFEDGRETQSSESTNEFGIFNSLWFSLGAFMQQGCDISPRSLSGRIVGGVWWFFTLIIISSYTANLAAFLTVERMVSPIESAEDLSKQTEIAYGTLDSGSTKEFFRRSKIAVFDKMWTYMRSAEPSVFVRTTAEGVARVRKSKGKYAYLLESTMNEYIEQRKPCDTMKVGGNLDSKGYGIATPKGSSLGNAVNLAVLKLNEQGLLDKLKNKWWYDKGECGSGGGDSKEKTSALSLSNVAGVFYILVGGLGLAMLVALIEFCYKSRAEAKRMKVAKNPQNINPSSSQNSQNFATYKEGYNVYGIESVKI
JAK3: Tyrosine-protein kinase JAK3 (JAK3, Homo sapiens, UniProt P52333)
UniProt Q00534, sequence (whole entry, looked up): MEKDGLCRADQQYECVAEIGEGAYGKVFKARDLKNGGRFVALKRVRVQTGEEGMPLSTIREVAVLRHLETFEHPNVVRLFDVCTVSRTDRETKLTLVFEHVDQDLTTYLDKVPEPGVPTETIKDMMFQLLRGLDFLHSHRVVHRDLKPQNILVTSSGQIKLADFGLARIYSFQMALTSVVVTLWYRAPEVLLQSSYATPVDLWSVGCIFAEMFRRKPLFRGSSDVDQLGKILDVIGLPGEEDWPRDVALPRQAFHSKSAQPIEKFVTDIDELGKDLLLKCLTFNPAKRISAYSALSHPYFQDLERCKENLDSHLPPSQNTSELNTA
UniProt P30405, sequence (whole entry, looked up): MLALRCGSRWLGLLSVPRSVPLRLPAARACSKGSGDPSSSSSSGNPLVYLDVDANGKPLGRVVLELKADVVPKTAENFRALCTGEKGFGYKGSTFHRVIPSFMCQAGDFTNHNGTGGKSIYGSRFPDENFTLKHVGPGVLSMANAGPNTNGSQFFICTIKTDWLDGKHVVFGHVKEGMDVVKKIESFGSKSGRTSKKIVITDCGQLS
UniProt P25106, sequence (whole entry, looked up): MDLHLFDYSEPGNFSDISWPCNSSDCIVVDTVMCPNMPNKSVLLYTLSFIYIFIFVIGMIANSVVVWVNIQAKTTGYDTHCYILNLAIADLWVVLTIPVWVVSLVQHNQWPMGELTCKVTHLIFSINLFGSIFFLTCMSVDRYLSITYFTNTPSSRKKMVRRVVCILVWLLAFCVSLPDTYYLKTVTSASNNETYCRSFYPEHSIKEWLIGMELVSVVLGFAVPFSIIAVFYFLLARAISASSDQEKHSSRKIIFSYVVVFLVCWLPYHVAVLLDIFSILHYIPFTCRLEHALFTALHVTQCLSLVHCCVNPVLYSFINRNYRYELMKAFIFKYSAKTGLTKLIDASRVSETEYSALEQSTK

For `CC(=O)OC1CCC2(C)C(CCC3(C)C2CC=C2C4C(C)C(C)CCC4(C(=O)O)CCC23C)C1(C)C` (centres unmarked), the IC50 was over 100 µM (UGT1A6 (Homo sapiens, UniProt P19224); enzyme activity, inhibitor).
`O=C(CCc1ccc(CNC(C(=O)OC2CCCC2)C2CCCCC2)cn1)NO` (centres unmarked) gave an IC50 of 1 µM (HDAC10 (Homo sapiens, UniProt Q969S8); enzyme activity, inhibitor).
With `CC[C@H](C)[C@@H]1NC(=O)[C@H](Cc2ccccc2C(F)(F)F)NC(=O)CCSCc2cccc(n2)CSCCCNC(=O)[C@H](CCCCCC(=O)O)NC1=O` the IC50 was over 30 µM (HDAC9; enzyme activity, inhibitor, fluorogenic).
For `OC[C@@H]1[C@@H](O)[C@H](O)[C@@H](O)CN1CCCCCOCc1ccc(-c2ccc3c(c2)OCO3)cc1`, the IC50 was 0.5 µM (GBA1 R534H; inhibitor, 4MU-β-D-glucopyranoside; added: 4MU-β-D-glucopyranoside).
`C[C@@H](O)[C@@H]1NC(=O)[C@H](CCCCN)NC(=O)[C@@H](Cc2ccc(NC(N)=O)cc2)NC(=O)[C@H](Cc2ccc(O)cc2)NC(=O)[C@H](NC(=O)[C@@H](N)Cc2ccc(Cl)cc2)CSSC[C@@H](C(=O)N[C@@H](Cc2ccc3ccccc3c2)C(N)=O)NC1=O` has an IC50 of over 1 µM (SSTR1 (Homo sapiens, UniProt P30872); ligand displacement, radioligand).
For `O=C(O)c1cc(/C=C/C(=O)c2cc(Cl)ccc2O)c2c(c1)COCO2`, the IC50 was 79 µM (P4HB; enzyme activity, inhibitor).
`O[C@H]1[C@H](O)[C@@H](O)c2[nH]cnc2[C@@H]1O` has an IC50 of over 100 µM (bglA (Thermotoga maritima, UniProt Q08638); enzyme activity, inhibitor; pH 6.8, with preincubation).
The IC50 of `CC(C)c1ccccc1[C@@H]1CCCN1C1CC2(CCN(c3ccc(C(=O)NS(=O)(=O)c4ccc(NC[C@H]5CC[C@](C)(O)CC5)c([N+](=O)[O-])c4)c(Oc4cnc5[nH]ccc5c4)c3)CC2)C1` is reported as over 10 µM (Bcl-2-related protein A1 (Homo sapiens, UniProt Q16548); binding, inhibitor, TR-FRET competition; added: BAX-derived peptide).
The IC50 of `O=C(Cc1ccc(OCc2ccccc2)cc1)NC1(C(=O)O)CCN(C(=O)c2ccc(-c3cccc(Cl)c3)cc2)CC1` is reported as over 10 µM (AGTR1 (Homo sapiens, UniProt P30556); reporter gene, antagonist, luciferase).
With `CCCCCCCN1C[C@H](O)[C@@H](O)[C@H](O)[C@H]1CO` the IC50 was 18.5 µM (GBA1 R534H; inhibitor, 4MU-β-D-glucopyranoside; added: 4MU-β-D-glucopyranoside).
For `O=C(NO)c1cccc(OS(=O)(=O)Oc2ccccc2)c1`, the IC50 was 0.132 µM (HDAC6; enzyme activity, inhibitor, fluorescence).
For `OC[C@H]1c2[nH]cnc2[C@H](O)[C@@H](O)[C@@H]1O`, the IC50 was 6.1 µM (GBA1 R534H; 30 min preincubation, pH 5.2, added: 200 µM 2,4-dinitrophenyl-β-D-glucopyranoside).
With `COCCN(C)C(C)C(=O)NC(Cc1ccc(-c2ccccc2)cc1)B(O)O` (centres unmarked) the IC50 was over 10 µM (20S proteasome, beta1 subunit (Plasmodium falciparum, UniProt Q8I0U7+Q8I6T3); β1 activity, inhibitor; added: Ac-nLPnLD-AMC).
`CC(C)(C)NC(=O)C1CCN(Cc2cccc(/N=N/c3ccc(F)cc3F)c2)CC1` gave an IC50 of over 10 µM (ACKR3 (Homo sapiens, UniProt P25106); ligand displacement, BRET).
The IC50 of `N#Cc1ccc(-c2ccc(COCCCCCN3C[C@H](O)[C@@H](O)[C@H](O)[C@H]3CO)cc2)cc1` is reported as 0.35 µM (GBA1 R534H; inhibitor, 4MU-β-D-glucopyranoside; added: 4MU-β-D-glucopyranoside).
`Cc1cc(C)nc(Nc2ccc([C@@H]3CCCN(C(=O)/C=C/c4csc(C)n4)C3)nc2)n1` gave an IC50 of 0.226 µM and 0.361 µM (CDK6 (Homo sapiens, UniProt Q00534); enzyme activity, inhibitor, ADP detection).
With `COc1cncc(-c2ccc3[nH]c4ncnc(N[C@H]5CC[C@H](N6CCOCC6)CC5)c4c3c2)c1` the IC50 was 0.011 µM (IRAK4 (Homo sapiens, UniProt Q9NWZ3); enzyme activity, inhibitor, AlphaScreen; added: ATP 200 µM).
With `Nc1ccc(-c2ccc(F)cc2)cc1NC(=O)C1CCOCC1` the IC50 was over 33.3 µM (HDAC9; enzyme activity, inhibitor).
With `CC(C)C[C@H](NC(=O)c1ccccc1)C(=O)N[C@@H](CC(C)C)C(=O)N[C@H](/C=C/S(C)(=O)=O)Cc1ccc(CN)cc1` the IC50 was over 10 µM (PSMB8; enzyme activity, inhibitor; lysate).
With `CC(C)COCCCCCN1C[C@H](O)[C@@H](O)[C@H](O)[C@H]1CO` the IC50 was 23 µM (GBA1 R534H; inhibitor, 4MU-β-D-glucopyranoside; added: 4MU-β-D-glucopyranoside).
`COc1cc(C)ccc1C(=O)/C=C/c1ccc(OC)c(OC)c1OC` gave an IC50 of over 100 µM (P4HB; enzyme activity, inhibitor).
`CC[C@H](C)C(=O)O[C@H]1C[C@@H](C)C=C2C=C[C@H](C)[C@H](CC[C@@H]3CC=CC(=O)O3)[C@H]21` gave an IC50 of ~0.85 µM and 0.85 µM (CFTR (Homo sapiens, UniProt P13569); apical chloride current, inhibitor; T84, basolaterally permeabilized; added: forskolin 20 µM).
`COC(=O)Cc1cc2c(cc1C(=O)c1ccccc1Cl)OCO2` gave an IC50 of 5.29 µM (Gria1/Gria2; ion current, patch clamp).
With `C[C@@H](Nc1nc2c(cnn2C(C)(C)C)c(=O)n1Cc1cccc(F)c1)c1ccc(Cl)cc1` the IC50 was 3.23 µM (PDE8A (Homo sapiens, UniProt O60658); enzyme activity, inhibitor).
The IC50 of `O=C(O)Cc1cc2c(cc1C(=O)c1ccc(Cl)cc1Cl)OCO2` is reported as 3.93 µM (Gria1/Gria2; ion current, patch clamp).
With `CC(=O)N1CCC2(CC1)C(=O)N(CC(=O)Nc1ccccc1)CN2c1ccccc1` the IC50 was over 167 µM (DDR1 (Homo sapiens, UniProt Q08345); ligand displacement).
For `COc1ccc(Br)cc1/C=C/C(=O)c1ccc([N+](=O)[O-])cc1`, the IC50 was over 100 µM (P4HB; enzyme activity, inhibitor).
For `OC[C@H]1N[C@H](CCCCCOCC23CC4CC(CC(C4)C2)C3)[C@H](O)[C@@H](O)[C@@H]1O`, the IC50 was 0.07 µM (GBA1 R534H; inhibitor, 4MU-β-D-glucopyranoside; added: 4MU-β-D-glucopyranoside).
With `N#Cc1c(-c2ccco2)cc(-c2cccs2)[nH]c1=O` the IC50 was 14.7 µM (Protein FosB, ΔFosB isoform, with JunD (Fosb, Mus musculus, UniProt P13346); DNA binding, fluorescence polarization; added: 1 mM TCEP).
`COC(=O)Cc1cc2c(cc1C(=O)c1ccccc1)OCO2` gave an IC50 of 6.08 µM (Gria1/Gria2; ion current, patch clamp).
`C=CC(=O)Nc1ccc(F)c(-c2ncnc3[nH]cc(C(=O)OCC)c23)c1` has an IC50 of 0.00743 µM (JAK3; inhibitor, kinase; added: ATP 1 mM).
`CC(C)c1ccccc1OS(=O)(=O)Oc1cccc(C(=O)NO)c1` gave an IC50 of 0.755 µM (HDAC6; enzyme activity, inhibitor, fluorescence).
For `O=C1CCC(N2C(=O)c3ccc(N4CC(C(=O)N5CC(CN6CCC(CNC(=O)c7cccc(-c8noc(C(F)(F)F)n8)c7)(c7nc(-c8ccccc8)cs7)CC6)C5)C4)cc3C2=O)C(=O)N1` (centres unmarked), the IC50 was 0.15 µM (HDAC9; enzyme activity, inhibitor).
`O=C(O)Cc1cc2c(cc1C(=O)c1ccccc1)OCO2` has an IC50 of 5.49 µM (Gria1/Gria2; ion current, patch clamp).
For `C[C@H](OCCCCCN1C[C@H](O)[C@@H](O)[C@H](O)[C@H]1CO)c1ccc(-c2ccccc2)cc1`, the IC50 was 400 µM (GBA1 R534H; inhibitor, 4MU-β-D-glucopyranoside; added: 4MU-β-D-glucopyranoside).
`Cc1nc2ccccc2c(=O)n1N` gave an IC50 of 26.3 ± 0.57 µM (PLA2G5 (Homo sapiens, UniProt P39877); enzyme activity, inhibitor, colorimetric).
For `OC[C@@H]1[C@@H](O)[C@H](O)[C@@H](O)CN1CCCCCOCC1CCCC1`, the IC50 was 13 µM (GBA1 R534H; inhibitor, 4MU-β-D-glucopyranoside; added: 4MU-β-D-glucopyranoside).
`OCC1=C[C@@H](F)[C@H](O)[C@@H](O)[C@@H]1O` has an IC50 of 41 ± 15 µM (GBA1 (Homo sapiens, UniProt P04062); added: resorufin β-glucoside at Km).
The IC50 of `O=C(/C=C/c1cc(Br)ccc1F)c1ccc(O)cc1` is reported as 1.07 µM (P4HB; enzyme activity, inhibitor).
`O=C(O)Cc1cc2c(cc1C(=O)c1cccc(Cl)c1)OCO2` has an IC50 of 4.17 µM (Gria1/Gria2; ion current, antagonist, patch clamp).
For `CCOC(=O)C[C@@H](C#N)NC(=O)[C@@H]1CCCN1C(=O)[C@@H](NC(=O)c1ccc(N)c(Cl)c1)C(C)(C)C`, the IC50 was 6.73 µM (Cathepsin K (CTSK, Homo sapiens, UniProt P43235); enzyme activity, inhibitor).
The IC50 of `CC(C)C[C@H](NC(=O)[C@H](Cc1ccc2ccccc2c1)NC(=O)[C@H](CCC(=O)O)NC(=O)c1cscn1)C(=O)NC1CC1c1ccccc1` (some centres unmarked) is reported as 79 µM (APC (Homo sapiens, UniProt P25054); ligand displacement, FP).
`Cc1cnc(Nc2ccc3c(c2)CCN(C(=O)/C=C/CC(C)C)C3)nc1-c1cnn(C(C)C)c1` gave an IC50 of over 0.03 µM (JAK3; enzyme activity, inhibitor, ADP detection).
With `COc1ccccc1C(=O)/C=C/c1ccc(C(=O)O)cc1` the IC50 was over 10 µM (P4HB; enzyme activity, inhibitor).
For `OC[C@@H]1[C@@H](O)[C@H](O)[C@@H](O)CN1CCCCCOCc1ccc(-c2cc(C(F)(F)F)cc(C(F)(F)F)c2)cc1`, the IC50 was 0.8 µM (GBA1 R534H; inhibitor, 4MU-β-D-glucopyranoside; added: 4MU-β-D-glucopyranoside).
The IC50 of `Cc1nn(-c2cccc(N)c2)c(=O)c2cnc(Nc3ccc(N4CCNCC4)cc3)nc12` is reported as over 10 µM (FGFR3 (Homo sapiens, UniProt P22607); enzyme activity, inhibitor).
`Fc1ccc(Nc2nc(NC3CCCCC3)c3ccccc3n2)cc1F` has an IC50 of 1.58 µM (ADRB2 (Homo sapiens, UniProt P07550, V126A); β-arrestin2 recruitment, antagonist, BRET; HEK293; mutant V126A, added: isoprenaline 1 µM).
For `CC(=O)OCC1C=C(C2(C)CCCCC2)CCC1COC(C)=O` (single isomer, unassigned; (+)), the IC50 was under 0.5 µM (PPIF (Homo sapiens, UniProt P30405); enzyme activity, inhibitor).
With `CCc1ccc(C(=O)/C=C/c2ccc(O)cc2)cc1` the IC50 was over 100 µM (P4HB; enzyme activity, inhibitor).
`CC(C)C[C@H](NC(=O)[C@H](Cc1ccc(CN)cc1)NC(=O)[C@H](Cc1ccccc1)N=[N+]=[N-])C(=O)N[C@H](C(=O)[C@@]1(C)CO1)C1CCCCC1` gave an IC50 of over 10 µM (PSMB8; enzyme activity, inhibitor; lysate).

A few entries again:
With `CC[C@H](C)[C@@H]1NC(=O)[C@H](Cc2ccccc2C(F)(F)F)NC(=O)CCSCc2cccc(n2)CSCCCNC(=O)[C@H](CCCCCC(=O)O)NC1=O` the IC50 was over 30 µM (HDAC9; enzyme activity, inhibitor, fluorogenic).
For `OC[C@@H]1[C@@H](O)[C@H](O)[C@@H](O)CN1CCCCCOCc1ccc(-c2ccc3c(c2)OCO3)cc1`, the IC50 was 0.5 µM (GBA1 R534H; inhibitor, 4MU-β-D-glucopyranoside; added: 4MU-β-D-glucopyranoside).
`C[C@@H](O)[C@@H]1NC(=O)[C@H](CCCCN)NC(=O)[C@@H](Cc2ccc(NC(N)=O)cc2)NC(=O)[C@H](Cc2ccc(O)cc2)NC(=O)[C@H](NC(=O)[C@@H](N)Cc2ccc(Cl)cc2)CSSC[C@@H](C(=O)N[C@@H](Cc2ccc3ccccc3c2)C(N)=O)NC1=O` has an IC50 of over 1 µM (SSTR1 (Homo sapiens, UniProt P30872); ligand displacement, radioligand).
